Assay results gathered from unrelated publications.
A part holds a random share of what one study measured.

Study 1
Target: Histone acetyltransferase KAT6A, winged helix 2, GST fusion (KAT6A, Homo sapiens, UniProt Q92794, residues 85-181)
Method: protein binding microarray
Molecule type: double-stranded DNA, one strand shown
Medium: in vitro
Concentration: not given
Notes: 8-mer, flanks averaged, mean of 2 arrays, mostly near background
Relative to: not given
Reading: higher = stronger binding
Construct (chain): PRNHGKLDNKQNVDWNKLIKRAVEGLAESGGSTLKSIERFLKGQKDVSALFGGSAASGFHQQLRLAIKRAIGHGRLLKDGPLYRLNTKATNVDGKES
For `ACGACATG`, the E-score was 0.0891.
For `GACTTCTA`, the E-score was -0.18.
`CTGGATCA` gave an E-score of -0.00585.
`GAGTGAGC` gave an E-score of 0.0478.
For `AAGCCGCA`, the E-score was 0.118.
`AAAAGTAC` has an E-score of 0.0247.
For `GGTATTTA`, the E-score was -0.129.
`CTTATCTA` gave an E-score of -0.0499.
`CAGATACG` gave an E-score of -0.145.
The E-score of `ATAAAAGC` is reported as -0.00546.
With `CTAATGCA` the E-score was 0.0524.
`CATTCGGC` has an E-score of 0.164.
With `CGACGCAA` the E-score was 0.228.
For `CGGCGGCC`, the E-score was -0.0365.
The E-score of `TAGGGAGA` is reported as -0.0769.
With `AAGGTGGT` the E-score was -0.137.
`AAGCATAG` has an E-score of 0.0376.
For `ATTCTGGC`, the E-score was 0.0331.
`AAATATTA` gave an E-score of 0.0123.
For `ACCCACGC`, the E-score was 0.0467.
`ACCGTAGA` has an E-score of -0.172.
`ATTGCACC` gave an E-score of -0.00334.
The E-score of `AACTTCGG` is reported as -0.104.
For `AGAATGCG`, the E-score was -0.0605.
For `AAGATAGG`, the E-score was -0.173.

Study 2
Target: Interferon regulatory factor 5, full length, phosphomimetic (IRF5, Homo sapiens, UniProt Q13568-2, residues 1-514, K96S/S451D/S453D/S456D/S462D)
Method: protein-binding microarray
Molecule type: double-stranded DNA, one strand shown
Medium: in vitro
Concentration: 250 nM
Notes: 60-bp whole probe
Added: salmon DNA 0.4 mg/ml
Relative to: random background probes
Reading: higher = stronger binding
All sequences stand within: GCCTAGCAC … GTCTTGATTCGCTTGACGCTGCTG
The log fluorescence of `CTTCTCCTCTAGGTTCTCTGAGTGCTA` is reported as 0.229 z-score.
The log fluorescence of `GTGGCAGGCCCTCGGGCTCCGTGCTAG` is reported as -1.14 z-score.
With `TGAAATCTCTTTCCTTACTTGTGCTAG` the log fluorescence was 1.45 z-score.
For `GACTGTCTCCTTATCCTGACGTGCTAG`, the log fluorescence was 0.13 z-score.
For `TCAAGTCCCATGTTGCAGACTGTGCTA`, the log fluorescence was -0.362 z-score.
`TTTGATTTCAGTATCGATTAGTGCTAG` gave a log fluorescence of 9.14 z-score.
`TTAGGTATCGACTTACGGTTAGTGCTA` gave a log fluorescence of 3.81 z-score.
The log fluorescence of `GACGGTCCCGGTTTCGGGACGTGCTAG` is reported as 2.95 z-score.
The log fluorescence of `GACGGTTGCGACACTGGGGACGTGCTA` is reported as -0.196 z-score.
With `ATTAGTATGTTCACTATTTAAGTGCTA` the log fluorescence was 0.607 z-score.
`TTAGATTTCGGACTGGGTTAGTGCTAG` gave a log fluorescence of 2 z-score.
The log fluorescence of `TCAACTCTCTGGGCTGTGACTGTGCTA` is reported as 0.00691 z-score.
`GACAATTTCGGGTTTCGAGACGTGCTA` gave a log fluorescence of 7.49 z-score.
For `TTGGATATCGGGTATCGATTAGTGCTA`, the log fluorescence was 5.01 z-score.
The log fluorescence of `GACGATATCACTCTCGAGACGTGCTAG` is reported as 1.55 z-score.
For `TTAGATATCAGGTTCGATTAGTGCTAG`, the log fluorescence was 1.12 z-score.
`TTAGGTTTCGGACTGGGTTAGTGCTAG` gave a log fluorescence of 5.09 z-score.
`GACGAGATCGGGTTTCGAGACGTGCTA` gave a log fluorescence of 1.67 z-score.
`GACGGCATCCTTATCCTGACGTGCTAG` has a log fluorescence of -0.366 z-score.

Study 3
Target: RNA binding protein fox-1 homolog 2, RRM domain, GST-SBP tag (RBFOX2, Homo sapiens, UniProt O43251-10, residues 100-194)
Method: RNA Bind-n-Seq
Molecule type: RNA
Medium: in vitro
Concentration: 365 nM
Notes: natural RNA segment, single round, ends assumed
Relative to: no-protein control
Reading: higher = stronger binding
All sequences stand within: GGGAGUUCUACAGUCCGACGAUC … UGGAAUUCUCGGGUGCCAA
`UCCACUCCCCCUGCCUGCCCCCAGCAUCUGGACAAGCUAAUAGCAAAUAUUACCCAUUGCUAUCAAGGGAGGAGGGGGUAGUCUGUAGAACCCAUGUGUGACAGUCAUGU`: “RBNS enrichment (R)” 1.66.
`AAUUUGGGGGACAUGCUAAAUAACUAUAUAAGACAUUAAGAGAACAAAGAGUGAAAUAUUGUAAAUGCUAUUAUACUGUUAUCCAUAUUACGUUGUUUCUUAUAGAUUUU` — result for “RBNS enrichment (R)”: 0.764.
Under “RBNS enrichment (R)”, `UGUCACCUGGAGAUGCCCUCUAUUGUGGCUUGGUUGGGCUUGUGUUUGAAAUGCUUUACAAAGGAAAACUGCAUGCCACAUGAGAAAACUUCAAAGUACACUUGCAAUGC` is recorded as 6.96.
`GGAAACGGACCAAUGUCUGGGUGUGGGAGGUGCUGAACCUUUUCUGGCCAUGAACCAUUAUAAAAUCCCAACAUAUAUACUGAAAAUACUGAAACUGCUUUGAAAAUUUG` — result for “RBNS enrichment (R)”: 0.732.
Under “RBNS enrichment (R)”, `UGUUUACCUAUAUUUCUGGAGGCUCCUGUAUUCUAGAACCCAAUCUCUCACCUGCUUGGUUGCAAGGCUCAUAUUUUUUUGUACCUUUCCUAUAGAUUCUGUAGCAUUUG` is recorded as 0.936.
Under “RBNS enrichment (R)”, `GCUUUAGAGUUUUCUGAAUUCCUGCGCCUUCCUGACGUGAGCCCUGAGCGAUCUUCUAUGCAGUUCUGCCAUGCGUCCUGUUGGUCUCUCUGUGUUCUUUGUUACUUGGG` is recorded as 0.431.
Under “RBNS enrichment (R)”, `UCCUGUUUCUCUAACACUAACAUGGAUAACCUAAGGGAAGUGCCAGCCGCUGUUGGCAGGGUAUUAAACGUGCAUUUUUACUCAACUACCUCAGGUAUUCAGUAAUACAG` is recorded as 0.386.
`UGGUAGUUUUUUUGUUCUUUUAAACUGAGCUCAGCGAGUUUGGCCCACACUGGUGGGCUGCUGGGUAUUCAGCCACCACACUCUUCACUGCUUGGACCUAGUUGGUGUUU`: “RBNS enrichment (R)” 0.967.

Study 4
Target: RING finger protein unkempt homolog, zinc fingers 1-6, GST-SBP tag (UNK, Homo sapiens, UniProt Q9C0B0, residues 30-357)
UniProt Q9C0B0, sequence (30-357, looked up): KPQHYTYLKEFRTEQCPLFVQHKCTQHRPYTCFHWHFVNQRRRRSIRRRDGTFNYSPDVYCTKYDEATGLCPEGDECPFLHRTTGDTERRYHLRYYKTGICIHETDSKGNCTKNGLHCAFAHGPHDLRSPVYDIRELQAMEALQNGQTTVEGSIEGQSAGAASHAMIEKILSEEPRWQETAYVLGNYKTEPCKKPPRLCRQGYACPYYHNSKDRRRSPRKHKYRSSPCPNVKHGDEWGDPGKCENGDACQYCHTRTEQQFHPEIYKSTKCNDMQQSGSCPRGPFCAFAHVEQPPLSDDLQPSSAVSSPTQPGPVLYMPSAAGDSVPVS
Method: RNA Bind-n-Seq
Molecule type: RNA
Medium: in vitro
Concentration: not given
Notes: RNA with constant flanks, human and mouse sites, ends assumed
Relative to: input RNA pool
Reading: higher = stronger binding
All sequences stand within: GGGAGUUCUACAGUCCGACGAUC … CAACAGAGGAUUGAGCAUCA
The bound/input enrichment of `GUGAAGUUUGGGGAAAGCAUUGAGGACUUGCACACCUGCCGUCUCUUAAUUAAACAGGACAUUCCUGCAGGACUUUAUGUGGAUCCGUAUGAGUUGGCUUCAUUACGAGAGAGAAACAUA` is reported as 0.368 ratio.
For `CCCUCGGCCCCCUCCCCCUCUAAGAUAAAUAAGAAAAUACUCAAAGCGAAAACCAAACUGCAUAAGCUUAACCCGCUGAUGAGUGGUUUUAUUUUGAAACUCGUUUUUUGGGUCCAGUCA`, the bound/input enrichment was 0.563 ratio.
The bound/input enrichment of `CAAUUAUCUCAUGAUGUACGUCAGGCCUUUCCAGUUAUUCCAAACAAUACAAAGUGACAAUAUAGUUGGCUUCUAACUAUAGUACAAAUUUGAUUACAGUUAAUAUACUUAAGAUAUUAC` is reported as 0.57 ratio.
The bound/input enrichment of `CUUUCUGGAUUAGACUCAGUAGCUUCUUUCAGUUGAAAAUGAGGAGUGGCUUCAUCCCAUUUAUCUUUUCUUUUUUUUUUUUUUAAGAUUUAUUUAUUAUAUGUAAGUGUAGCUGUCUUC` is reported as 18 ratio.
For `AGAGAACAUGUGAGAAUUCACACGCAAGAGCAGCUCUAUAAAUGUGAACAAUGUGGGAAGGCUUUUACCUCUUCCAGAUCAUUCCGAGGUCAUUUGAGGACGCACACUGGAGAGAAGCCU`, the bound/input enrichment was 0.177 ratio.
`AAAAAGGAGAAACCUCUUCCAAGACUUAAUAUCCAUUCUGGAUUCUGGAUUUUGGCAUCCAUUGUUGUGACCUAUUAUGUUGACUUCUUUAAAACCCUUAAAGAAAACUUCCACACUAGC` gave a bound/input enrichment of 0.442 ratio.
The bound/input enrichment of `GGCAAAGGUCGAUUUGGAGAAGUUUGGAGAGGAAAGUGGCGGGGAGAAGAAGUUGCUGUUAAGAUAUUCUCCUCUAGAGAAGAACGUUCGUGGUUCCGUGAGGCAGAGAUUUAUCAAACU` is reported as 0.571 ratio.
The bound/input enrichment of `AACAUUAAUGGAACCUCCUACCCUAGUCUACAGCAGAAAACCAAUGCUGUUAAGAAAUUACAUAAAUGUGAUGAAUGUGGGAAAUCCUUCAAAUAUAAUUCCCGCCUUGUUCAACAUAAA` is reported as 20.7 ratio.

Some of these lines once more (study 2):
`TTTGATTTCAGTATCGATTAGTGCTAG` gave a log fluorescence of 9.14 z-score.
`TTAGGTATCGACTTACGGTTAGTGCTA` gave a log fluorescence of 3.81 z-score.
The log fluorescence of `GACGGTCCCGGTTTCGGGACGTGCTAG` is reported as 2.95 z-score.
The log fluorescence of `GACGGTTGCGACACTGGGGACGTGCTA` is reported as -0.196 z-score.
With `ATTAGTATGTTCACTATTTAAGTGCTA` the log fluorescence was 0.607 z-score.
`TTAGATTTCGGACTGGGTTAGTGCTAG` gave a log fluorescence of 2 z-score.
The log fluorescence of `TCAACTCTCTGGGCTGTGACTGTGCTA` is reported as 0.00691 z-score.
`GACAATTTCGGGTTTCGAGACGTGCTA` gave a log fluorescence of 7.49 z-score.
